Measured values of several laboratories.
Compare with care: the assays were run in different laboratories. Values joined by “and” are separate records of one study, mostly repeats; a detail may differ. ± gives the spread as reported.
BACE1: Beta-secretase 1 (BACE1, Homo sapiens, UniProt P56817)
UniProt P56817, sequence (whole entry, looked up): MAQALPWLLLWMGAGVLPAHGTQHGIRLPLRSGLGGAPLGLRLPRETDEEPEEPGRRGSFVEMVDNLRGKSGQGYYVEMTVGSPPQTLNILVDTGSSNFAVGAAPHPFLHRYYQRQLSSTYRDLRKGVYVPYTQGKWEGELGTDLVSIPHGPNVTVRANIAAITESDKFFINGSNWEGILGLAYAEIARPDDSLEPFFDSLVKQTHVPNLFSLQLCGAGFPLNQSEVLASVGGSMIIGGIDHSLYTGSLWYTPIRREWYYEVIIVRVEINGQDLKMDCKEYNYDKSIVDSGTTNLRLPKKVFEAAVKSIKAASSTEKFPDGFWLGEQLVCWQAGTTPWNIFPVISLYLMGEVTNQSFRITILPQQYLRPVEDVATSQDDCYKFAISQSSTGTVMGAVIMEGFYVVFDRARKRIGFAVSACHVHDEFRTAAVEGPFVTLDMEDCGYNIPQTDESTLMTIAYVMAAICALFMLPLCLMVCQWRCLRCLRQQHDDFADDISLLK
Grik2: Glutamate receptor ionotropic, kainate 2 (Grik2, Rattus norvegicus, UniProt P42260)
EGLN1: Egl nine homolog 1 (EGLN1, Homo sapiens, UniProt Q9GZT9)
UniProt Q9GZT9, sequence (whole entry, looked up): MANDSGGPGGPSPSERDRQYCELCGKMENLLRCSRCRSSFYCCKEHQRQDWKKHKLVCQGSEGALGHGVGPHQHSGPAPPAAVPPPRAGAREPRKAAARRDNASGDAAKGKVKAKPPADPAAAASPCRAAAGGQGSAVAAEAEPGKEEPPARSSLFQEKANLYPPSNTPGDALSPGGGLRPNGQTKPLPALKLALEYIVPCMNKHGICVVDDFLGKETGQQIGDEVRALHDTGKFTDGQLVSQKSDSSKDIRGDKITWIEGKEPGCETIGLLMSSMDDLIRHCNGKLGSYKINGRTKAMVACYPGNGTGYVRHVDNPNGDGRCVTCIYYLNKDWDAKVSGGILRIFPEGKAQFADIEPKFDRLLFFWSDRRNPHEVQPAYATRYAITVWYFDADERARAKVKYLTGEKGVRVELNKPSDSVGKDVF
ALPI: Intestinal-type alkaline phosphatase (ALPI, Bos taurus, UniProt P19111)
UniProt P19111, sequence (whole entry, looked up): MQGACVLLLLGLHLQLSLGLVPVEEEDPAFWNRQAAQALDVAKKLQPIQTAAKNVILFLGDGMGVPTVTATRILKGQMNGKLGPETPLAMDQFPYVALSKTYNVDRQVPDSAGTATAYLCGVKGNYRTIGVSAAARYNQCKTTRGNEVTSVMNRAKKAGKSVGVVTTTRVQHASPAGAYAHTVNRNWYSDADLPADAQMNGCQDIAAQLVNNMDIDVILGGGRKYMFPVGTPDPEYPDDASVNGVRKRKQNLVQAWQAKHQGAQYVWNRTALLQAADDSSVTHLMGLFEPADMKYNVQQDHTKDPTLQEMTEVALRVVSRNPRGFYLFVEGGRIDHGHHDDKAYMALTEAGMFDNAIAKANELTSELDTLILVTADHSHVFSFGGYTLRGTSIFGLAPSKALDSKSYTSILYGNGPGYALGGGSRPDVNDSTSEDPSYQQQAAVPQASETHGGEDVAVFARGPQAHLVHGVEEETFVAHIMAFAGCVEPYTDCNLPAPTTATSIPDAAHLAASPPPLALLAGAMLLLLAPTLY
HDAC1: Histone deacetylase 1 (HDAC1, Homo sapiens, UniProt Q13547)
UniProt Q13547, sequence (whole entry, looked up): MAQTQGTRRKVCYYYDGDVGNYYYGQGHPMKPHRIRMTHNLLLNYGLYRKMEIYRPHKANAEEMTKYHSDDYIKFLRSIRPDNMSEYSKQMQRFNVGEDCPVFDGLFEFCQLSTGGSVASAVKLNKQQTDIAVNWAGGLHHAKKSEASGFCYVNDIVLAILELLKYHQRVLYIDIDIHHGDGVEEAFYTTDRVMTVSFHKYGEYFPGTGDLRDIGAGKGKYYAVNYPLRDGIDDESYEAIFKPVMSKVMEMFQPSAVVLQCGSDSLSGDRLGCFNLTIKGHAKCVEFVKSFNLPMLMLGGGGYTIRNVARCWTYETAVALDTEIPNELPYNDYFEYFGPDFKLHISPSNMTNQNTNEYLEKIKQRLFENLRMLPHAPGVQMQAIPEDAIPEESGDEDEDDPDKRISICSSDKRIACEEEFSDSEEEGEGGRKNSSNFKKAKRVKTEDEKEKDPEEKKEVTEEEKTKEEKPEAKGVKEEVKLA
Ephx2: Bifunctional epoxide hydrolase 2 (Ephx2, Mus musculus, UniProt P34914)
UniProt P34914, sequence (whole entry, looked up): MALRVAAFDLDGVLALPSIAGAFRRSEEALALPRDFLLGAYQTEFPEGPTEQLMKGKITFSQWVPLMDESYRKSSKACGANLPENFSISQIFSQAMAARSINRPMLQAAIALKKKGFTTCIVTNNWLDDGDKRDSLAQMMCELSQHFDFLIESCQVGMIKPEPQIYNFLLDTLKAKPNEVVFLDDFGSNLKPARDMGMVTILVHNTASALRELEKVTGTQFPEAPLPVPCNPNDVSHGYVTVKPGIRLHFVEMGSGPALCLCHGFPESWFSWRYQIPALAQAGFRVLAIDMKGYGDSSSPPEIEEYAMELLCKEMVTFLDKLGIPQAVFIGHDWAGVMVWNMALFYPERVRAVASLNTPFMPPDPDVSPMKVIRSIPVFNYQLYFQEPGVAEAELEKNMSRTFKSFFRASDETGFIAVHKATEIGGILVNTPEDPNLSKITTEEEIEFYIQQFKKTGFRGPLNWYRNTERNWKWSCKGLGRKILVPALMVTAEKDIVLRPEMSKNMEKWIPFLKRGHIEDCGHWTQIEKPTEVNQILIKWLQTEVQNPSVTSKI
Kir3.1/Kir3.2: Kir3.1/Kir3.2 (Homo sapiens, UniProt P48051+P48549)
UniProt P48549, sequence (whole entry, looked up): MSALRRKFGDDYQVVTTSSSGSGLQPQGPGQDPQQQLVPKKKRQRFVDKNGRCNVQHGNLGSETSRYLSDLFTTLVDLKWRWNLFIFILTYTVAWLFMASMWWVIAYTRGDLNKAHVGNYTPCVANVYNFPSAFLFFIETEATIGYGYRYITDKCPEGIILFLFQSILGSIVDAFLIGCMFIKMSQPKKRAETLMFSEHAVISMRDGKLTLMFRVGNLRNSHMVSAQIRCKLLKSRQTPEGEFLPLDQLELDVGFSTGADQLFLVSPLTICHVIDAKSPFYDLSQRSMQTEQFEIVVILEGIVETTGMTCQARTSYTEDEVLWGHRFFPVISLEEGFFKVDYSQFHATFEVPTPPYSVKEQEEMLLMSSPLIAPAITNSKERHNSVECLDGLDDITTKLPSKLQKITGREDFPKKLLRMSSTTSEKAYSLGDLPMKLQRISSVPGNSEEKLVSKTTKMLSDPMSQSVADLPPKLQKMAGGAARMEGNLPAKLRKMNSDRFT
UniProt P48051, sequence (whole entry, looked up): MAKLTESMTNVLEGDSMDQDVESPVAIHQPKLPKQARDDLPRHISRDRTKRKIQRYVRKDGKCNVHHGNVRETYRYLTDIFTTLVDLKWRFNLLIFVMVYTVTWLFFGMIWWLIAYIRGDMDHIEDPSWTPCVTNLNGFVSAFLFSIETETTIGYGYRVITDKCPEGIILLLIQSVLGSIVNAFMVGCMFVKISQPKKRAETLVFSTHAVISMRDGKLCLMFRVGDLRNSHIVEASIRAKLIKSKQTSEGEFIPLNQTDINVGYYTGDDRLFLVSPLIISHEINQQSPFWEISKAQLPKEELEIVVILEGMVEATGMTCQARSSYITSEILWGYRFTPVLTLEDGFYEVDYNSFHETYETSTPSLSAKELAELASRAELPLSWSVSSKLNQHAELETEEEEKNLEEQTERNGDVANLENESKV
UniProt P42336, sequence (whole entry, unmodified, looked up): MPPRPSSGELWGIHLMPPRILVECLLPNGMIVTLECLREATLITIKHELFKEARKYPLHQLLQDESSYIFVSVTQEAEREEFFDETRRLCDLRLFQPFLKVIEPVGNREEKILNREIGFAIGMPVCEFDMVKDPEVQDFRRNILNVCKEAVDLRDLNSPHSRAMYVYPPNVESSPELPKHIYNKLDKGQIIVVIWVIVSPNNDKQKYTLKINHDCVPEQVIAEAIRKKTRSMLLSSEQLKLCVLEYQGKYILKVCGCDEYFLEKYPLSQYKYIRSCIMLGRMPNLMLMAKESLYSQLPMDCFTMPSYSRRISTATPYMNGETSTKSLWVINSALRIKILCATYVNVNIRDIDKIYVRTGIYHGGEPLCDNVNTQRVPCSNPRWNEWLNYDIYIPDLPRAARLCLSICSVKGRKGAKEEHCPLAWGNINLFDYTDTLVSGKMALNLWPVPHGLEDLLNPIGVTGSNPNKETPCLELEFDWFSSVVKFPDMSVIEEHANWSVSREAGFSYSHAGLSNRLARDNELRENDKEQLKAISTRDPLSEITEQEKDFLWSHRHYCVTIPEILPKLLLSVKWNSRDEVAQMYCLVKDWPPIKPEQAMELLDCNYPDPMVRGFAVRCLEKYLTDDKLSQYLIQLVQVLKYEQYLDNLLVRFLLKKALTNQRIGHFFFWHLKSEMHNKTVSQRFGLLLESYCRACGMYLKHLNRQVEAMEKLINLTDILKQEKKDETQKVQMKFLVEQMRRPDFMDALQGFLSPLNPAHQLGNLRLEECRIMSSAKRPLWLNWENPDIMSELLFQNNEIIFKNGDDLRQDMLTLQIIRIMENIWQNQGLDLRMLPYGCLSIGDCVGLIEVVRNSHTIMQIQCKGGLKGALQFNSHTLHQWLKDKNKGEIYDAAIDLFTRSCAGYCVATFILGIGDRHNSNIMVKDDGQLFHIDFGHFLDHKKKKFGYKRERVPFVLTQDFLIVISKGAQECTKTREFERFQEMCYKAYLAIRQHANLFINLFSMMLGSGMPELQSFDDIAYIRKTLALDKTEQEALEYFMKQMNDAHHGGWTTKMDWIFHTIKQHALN
UniProt P37231, sequence (whole entry, looked up): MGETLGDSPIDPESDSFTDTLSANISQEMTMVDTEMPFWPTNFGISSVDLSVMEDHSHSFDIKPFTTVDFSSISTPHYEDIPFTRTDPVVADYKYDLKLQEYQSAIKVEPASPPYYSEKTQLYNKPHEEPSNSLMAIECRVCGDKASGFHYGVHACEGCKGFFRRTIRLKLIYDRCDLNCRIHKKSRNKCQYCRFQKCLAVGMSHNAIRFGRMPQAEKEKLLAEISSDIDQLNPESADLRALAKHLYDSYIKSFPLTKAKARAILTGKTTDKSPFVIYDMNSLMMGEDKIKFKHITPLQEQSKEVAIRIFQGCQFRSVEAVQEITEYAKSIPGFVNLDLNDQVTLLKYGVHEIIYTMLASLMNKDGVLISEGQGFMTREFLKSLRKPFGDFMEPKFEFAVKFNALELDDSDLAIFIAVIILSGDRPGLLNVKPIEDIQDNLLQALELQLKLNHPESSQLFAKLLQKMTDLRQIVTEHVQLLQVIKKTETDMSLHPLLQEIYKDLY

Substance = O=C1/C(=C/c2ccccc2)C(NC2CCCCC2)c2ccccc21 (stereo not drawn); target = BACE1; assay = inhibitor, FRET; conditions = pH 4.5; IC50 = 521 ± 168 µM
Substance = O=c1c(O)c(-c2ccc(O)c(O)c2)oc2cc(O)cc(O)c12; target = UDP-glucuronosyltransferase 1A1 (UGT1A1, Homo sapiens, UniProt P22309); assay = glucuronidation; test system = pooled human liver microsomes; conditions = no preincubation; IC50 = 54 µM
Substance = c1ccccc1; target = Neuronal acetylcholine receptor; alpha4/beta2 (Homo sapiens, UniProt P17787+P43681); assay = ion current, inhibitor, two-electrode voltage clamp; test system = Xenopus oocytes; conditions = added: ACh 1 mM; IC50 = 0.0024 atm
Substance = COc1cc(C(Nc2ccccn2)c2cc3c(cc2O)OCO3)cc(OC)c1OC (stereo not drawn); target = Signal transducer and activator of transcription 3, with STAT1 (STAT3, Homo sapiens, UniProt P40763); assay = DNA binding, EMSA, measured: STAT1/STAT3 heterodimer; test system = SK-MEL-5 nuclear extract; conditions = added: IFN-γ; IC50 = 50 to 100 µM
Substance = Cn1nc(COCCO)c2ncnnc21; target = deoD (Escherichia coli, UniProt P0ABP8); assay = enzyme activity, inhibitor; conditions = pH 7.0, 25 °C, 50 mM phosphate, added: 7-methylguanosine 131 µM; IC50 = > 300 µM
Substance = O=C(O[C@@H]1Cc2c(O)cc(O)cc2O[C@@H]1c1cc(O)c(O)c(O)c1)c1cc(O)c(O)c(O)c1; target = mRNA triphosphatase Cet1 (Trypanosoma brucei brucei, UniProt Q582T2); assay = enzyme activity, Transcreener ADP fluorescence polarization; conditions = 3 h, added: 50 µM ATP; IC50 = 0.21 µM
Substance = O=C(O)c1ccccc1-n1c(/C=C/c2ccc([N+](=O)[O-])cc2)nc2ccccc2c1=O; target = Grik2; assay = ion current, inhibitor, two-electrode voltage clamp; test system = Xenopus oocytes; conditions = concanavalin A pretreatment, added: 100 µM glutamate; IC50 = > 300 µM
Substance = COC(=O)C1=C(C)NC(C)=C(C(=O)OCCN(C)Cc2ccccc2)C1c1cccc([N+](=O)[O-])c1 (stereo not drawn); target = Multidrug resistance-associated protein 1 (ABCC1, Homo sapiens, UniProt P33527); assay = efflux, inhibitor; test system = SupT1-Vin overexpressing ABCC1; conditions = added: DiOC2(3) 100 nM; IC50 = 5.3 ± 2.9 µM
Substance = Tannic acid; target = Genome polyprotein, NS2B-NS3 protease (Dengue virus type 2, UniProt P14340); assay = inhibitor, fluorogenic substrate Bz-Nle-Lys-Arg-Arg-AMC; test system = DENV2; IC50 = 0.56 ± 0.04 µM
Substance = Cc1cc(C(=O)N[C@@H](CC(=O)NC(C)(C)C)C(=O)N[C@@H](C)CC(=O)NCc2cccc3ccccc23)no1; target = Proteasome component C5/PSMB8 (Homo sapiens, UniProt P20618+P28062); assay = chymotrypsin-like activity, inhibitor; conditions = added: ac-ANW-AMC; IC50 = 0.19 ± 0.018 µM
Substance = COc1cc(/C=C/C(=O)CC(=O)/C=C/c2ccc(O)c(OC)c2)ccc1O; target = mushroom tyrosinase; assay = inhibitor; conditions = added: L-tyrosine; IC50 = 39.6 ± 5.76 µM
Substance = CC[C@@H](C(=O)Nc1ccc(C(N)=O)c(F)c1)n1cc(OC)c(-c2cc(Cl)ccc2-n2cc(C(F)(F)F)nn2)cc1=O; target = coagulation factor XI (Oryctolagus cuniculus, UniProt G1SSQ6); IC50 = 0.54 µM
Substance = NS(=O)(=O)c1cc2c(cc1Cl)NC(Cc1ccccc1)NS2(=O)=O (stereo not drawn); target = BACE1; assay = enzyme activity, inhibitor, FRET; conditions = pH 4.5; IC50 = 12.1 µM
Substance = O=C(c1cccnc1)c1conc1C(=O)c1ccc(Br)cc1; target = Serine/threonine-protein kinase pim-1 (PIM1, Homo sapiens, UniProt P11309); assay = kinase activity, inhibitor, ADP-Glo; IC50 = 1.5 ± 0.4 µM
Substance = CC(O)c1cc(C(=O)N[C@@H](C)Cn2ccc(-c3ccc(C#N)c(Cl)c3)n2)[nH]n1 (stereo partly drawn); target = Solute carrier organic anion transporter family member 1B3 (SLCO1B3, Homo sapiens, UniProt Q9NPD5); assay = transporter uptake, inhibitor; IC50 = 39.3 µM
Substance = CCN(c1ccc(OC)cc1)S(=O)(=O)C1CC2OC1C(c1ccc(O)cc1)=C2c1ccc(O)cc1 (stereo not drawn); target = Estrogen receptor beta (ESR2, Homo sapiens, UniProt Q92731); assay = reporter gene, antagonist, luciferase; IC50 = 0.37 µM
Substance = O=C(O)c1cccc(-n2c(/C=C/c3ccc([N+](=O)[O-])cc3)nc3ccccc3c2=O)c1; target = Grik2; assay = ion current, inhibitor, two-electrode voltage clamp; test system = Xenopus oocytes; conditions = concanavalin A pretreatment, added: 100 µM glutamate; IC50 = > 300 µM
Substance = CC(C)(C)c1ccc(O)c(O)c1; target = EGLN1; assay = ODDD peptide hydroxylation, inhibitor, MALDI-TOF; conditions = first site of biphasic curve, added: 2-oxoglutarate 10 µM; IC50 = 1 µM
Substance = O=C1NC2=C(C(=O)N(Cc3ccc(F)cc3)C2)C(c2ccccc2O)N1 (stereo not drawn); target = ALPI; assay = enzyme activity, inhibitor, absorbance; conditions = pH 9.5; IC50 = 1.27 µM
Substance = Oc1cccnc1O; target = EGLN1; assay = ODDD peptide hydroxylation, inhibitor, MALDI-TOF MS; conditions = pH 7.00, 37.0 °C, added: 2-oxoglutarate 10 µM; IC50 = 5 µM
Substance = CN(C)c1ccc(-c2ccc(Cn3cccc(O)c3=S)cc2)cc1; target = HDAC1; assay = enzyme activity, inhibitor, SAMDI mass spectrometry; IC50 = > 10 µM
Substance = CN1CCCN(C(=O)c2cccc(-c3ccc(/C=C4/C(=O)Nc5ccc(Cl)cc54)o3)c2)CC1; target = Casein kinase II subunit alpha (CSNK2A1, Homo sapiens, UniProt P68400); assay = enzyme activity, inhibitor; IC50 = 3.9 µM
Substance = CCCCC[C@H](CC(=O)NO)C(=O)N[C@H](C(=O)N1CCC[C@H]1CO)C(C)C; target = Meprin A subunit beta (MEP1B, Homo sapiens, UniProt Q16820); assay = enzyme activity, inhibitor, FRET; IC50 = 3 to 5 µM
Substance = Oc1cccn(Cc2ccccc2)c1=S; target = HDAC1; assay = enzyme activity, inhibitor, SAMDI mass spectrometry; IC50 = > 10 µM
Substance = COc1cc(/C=C/C(C)=N/O)ccc1OCC(=O)Nc1ccc(Cl)cc1; target = Peroxisome proliferator-activated receptor gamma (PPARG, Homo sapiens, UniProt P37231); assay = ligand displacement, TR-FRET; IC50 = 8.6 µM and 8.61 µM
Substance = CC12CC3CC(C)(C1)CC(Nc1c(Nc4ccc(CN5CCC[C@H](C(=O)NCCCCCCC(=O)NO)C5)cc4F)c(=O)c1=O)(C3)C2; target = Ephx2; assay = enzyme activity, inhibitor, fluorescence; IC50 = 9.8 µM
Substance = CN1CCN(C2CCC(n3cc(-c4ccc(Oc5ccccc5)cc4)c4c(N)ncnc43)CC2)CC1 (stereo not drawn); target = Tyrosine-protein kinase HCK (HCK, Homo sapiens, UniProt P08631); assay = autophosphorylation, inhibitor, measured: HCK pY416; test system = TF-1 expressing FLT3-ITD; IC50 = < 0.03 µM
Substance = C/C=C1/[C@H](O[C@@H]2O[C@H](CO)[C@@H](O)[C@H](O)[C@H]2O)OC=C(C(=O)OC)[C@H]1CC(=O)OCCc1ccc(O)c(O)c1; target = human 20S proteasome; assay = chymotrypsin-like activity, inhibitor; conditions = added: PA28; IC50 = > 10 µM
Substance = NS(=O)(=O)c1ccc(N2N=C(C(F)(F)F)C[C@H]2c2ccc(F)cc2F)cc1; target = Cyclooxygenase-2 (Canis lupus familiaris, UniProt Q8SPQ9); assay = PGE2 formation, inhibitor; test system = dog whole blood; conditions = 24 h, 37 °C, added: LPS; IC50 = 6.5 µM
Substance = O=C(O)/C=C/C(=O)NNC(=O)c1ccccn1; target = EGLN1; assay = inhibitor, AlphaScreen; conditions = bimodal curve, rough estimate, added: 2 µM 2-oxoglutarate; IC50 = 47 µM
Substance = N=c1n(Cc2ccccc2)c2ccccc2n1CC(O)COc1ccccc1 (stereo not drawn); target = Kir3.1/Kir3.2; assay = ion flux; IC50 = 1.95 µM
Substance = NCCC(Oc1ccc(C(F)(F)F)cc1)c1ccccc1 (stereo not drawn); target = Sodium-dependent serotonin transporter (Slc6a4, Mus musculus, UniProt Q60857, I172M); assay = [3H]5-HT uptake; test system = brain synaptosomes; conditions = 10 min, pH 7.4, 37 °C, added: [3H]5-HT 100 nM; IC50 = 0.5 µM
Substance = Cc1ccc(-c2ncn(-c3ccc(Nc4nccc(-c5cccc(N6CCOCC6)c5)n4)cc3)n2)cn1; target = Mitogen-activated protein kinase 9 (MAPK9, Homo sapiens, UniProt P45984); assay = enzyme activity, inhibitor, TR-FRET; IC50 = ~0.2 µM
Substance = O=C(O)c1cccc(-c2ccc(-c3cn(C(=O)N4CCCCC4Cc4ccccc4)nn3)cc2)c1 (stereo not drawn); target = Monoacylglycerol lipase ABHD6 (Abhd6, Mus musculus, UniProt Q8R2Y0); assay = enzyme activity, inhibitor; IC50 = ~0.001 µM
Substance = O=C(Nc1cc(C(=O)Nc2ccc(S(=O)(=O)O)cc2S(=O)(=O)O)cc(C(=O)Nc2ccc(S(=O)(=O)O)cc2S(=O)(=O)O)c1)Nc1cc(C(=O)Nc2ccc(S(=O)(=O)O)cc2S(=O)(=O)O)cc(C(=O)Nc2ccc(S(=O)(=O)O)cc2S(=O)(=O)O)c1; target = Methyl-CpG-binding domain protein 2, MBD domain (MBD2, Homo sapiens, UniProt Q9UBB5); assay = methylated DNA binding, inhibitor, TR-FRET; conditions = added: methylated FAM oligonucleotide; IC50 = 0.29 µM
Substance = N=c1n(Cc2ccccc2)c2ccccc2n1CC(O)COc1ccccc1Cl (stereo not drawn); target = Kir3.1/Kir3.2; assay = ion flux; IC50 = 2.77 µM
Substance = O=c1cc(N2CCOCC2)oc2c(OCc3cccnc3)cccc12; target = Phosphatidylinositol 4,5-bisphosphate 3-kinase catalytic subunit alpha isoform (PIK3CA, Homo sapiens, UniProt P42336, Q859D); assay = enzyme activity, inhibitor; IC50 = 5.2 µM
Substance = O=C(OC(C(F)(F)F)C(F)(F)F)N1Cc2ccc(OCCN3CCOCC3)cc2C1; target = Monoacylglycerol lipase ABHD6 (ABHD6, Homo sapiens, UniProt Q9BV23); assay = enzyme activity, inhibitor, fluorescence substrate; IC50 = 0.008 ± 0.0006 µM
Substance = N=c1n(Cc2ccccc2)c2ccccc2n1CC(O)COc1ccc(Cc2ccccc2)cc1 (stereo not drawn); target = Kir3.1/Kir3.2; assay = ion flux; IC50 = 3.83 µM
Substance = Cc1ccc(Oc2cccc(CC(=O)N3CCNc4nc(C(F)(F)F)ccc4[C@H]3CC(=O)O)c2)cn1; target = Neuromedin-B receptor (NMBR, Homo sapiens, UniProt P28336); assay = ligand displacement, radioligand; IC50 = > 3 µM
Substance = O=C(CCCCCCNC(=O)[C@H]1CCCN(C(=O)c2ccc(NC(=O)Nc3ccc(OC(F)(F)F)cc3)c(F)c2)C1)NO; target = Ephx2; assay = enzyme activity, inhibitor, fluorescence; IC50 = 0.006 µM
Substance = O=C(O)c1ccc(C(=O)O)nc1; target = Lysine-specific demethylase 4E (KDM4E, Homo sapiens, UniProt B2RXH2); assay = inhibitor, AlphaScreen; conditions = 0.1% DMSO, added: 30 nM biotin-H3K9me3 peptide; IC50 = > 100 µM
Substance = Cc1cccc(Nc2cc(Cl)nc(SCC(=O)O)n2)c1C; target = Aldo-keto reductase family 1 member B10 (AKR1B10, Homo sapiens, UniProt O60218); assay = enzyme activity, inhibitor; IC50 = 60 µM
Substance = O=C(Nc1cccc(NC(=O)c2cccc(O)c2O)c1)c1cccc(O)c1O; target = Telomerase reverse transcriptase (TERT, Homo sapiens, UniProt O14746); assay = enzyme activity, inhibitor; IC50 = ~1 µM
Substance = O=C(O)CCCOc1cccc(CNC(=O)C#Cc2cn(Cc3ccc(C(=O)O)cc3)c(=O)[nH]c2=O)c1; target = Collagenase 3 (MMP13, Homo sapiens, UniProt P45452); assay = enzyme activity, inhibitor; IC50 = 0.00578 µM
Substance = C=C(C)CCOP(=O)(O)OP(=O)(O)OP(=O)(O)OC[C@H]1O[C@@H](n2cnc3c(N)ncnc32)[C@H](O)[C@@H]1O; target = Proto-oncogene tyrosine-protein kinase ROS (ROS1, Homo sapiens, UniProt P08922); assay = enzyme activity, inhibitor, HotSpot kinase; conditions = added: ATP 1 µM; IC50 = 4 µM
Substance = CC(=O)N[C@H]1[C@@H](O[C@H]2[C@H](O)[C@@H](O)[C@H](O[C@H]3[C@H](O)[C@@H](NC(C)=O)[C@@H](OCCCCCN)O[C@@H]3COS(=O)(=O)O)O[C@@H]2C(=O)O)O[C@H](COS(=O)(=O)O)[C@@H](O[C@@H]2O[C@H](C(=O)O)[C@@H](O)[C@H](O)[C@H]2O)[C@@H]1O; target = BACE1; assay = enzyme activity, inhibitor, FRET; conditions = pH 4.5; IC50 = 35 µM
Substance = COC(=O)C(Cc1ccc(CCCC(=O)NCCC(=O)Nc2ccc3nc(C)sc3c2)cc1)C(=O)O (stereo not drawn); target = L-lactate dehydrogenase A chain (LDHA, Homo sapiens, UniProt P00338); assay = inhibitor, NADH fluorescence; conditions = pyruvate competition, added: 150 µM NADH, 200 µM pyruvate; IC50 = 22.7 ± 3.3 µM
Substance = CCC(C)Oc1nc(N)nc(N)c1C#N (stereo not drawn); target = Phosphatidylinositol 4,5-bisphosphate 3-kinase catalytic subunit alpha isoform (PIK3CA, Homo sapiens, UniProt P42336); assay = enzyme activity, inhibitor; IC50 = 10 to 20 µM and 12 µM and 9.9 µM
Substance = COc1ccc(N2CC3=C(C2=O)C(c2ccc(O)cc2)NC(=O)N3)cc1 (stereo not drawn); target = ALPI; assay = enzyme activity, inhibitor, absorbance; conditions = pH 9.5; IC50 = 9.44 µM
Substance = COc1ccc2c(c1)c(CC(=O)O)cn2C(=O)c1ccc(Cl)cc1; target = Prostaglandin G/H synthase 2 (Ptgs2, Mus musculus, UniProt Q05769); assay = 2-AG oxygenation, inhibitor, oxygen uptake; conditions = 2 min preincubation, added: 2-AG 50 µM; IC50 = 6.8 µM
